Measured values collected from several papers.
Lines come from different studies, so protocols differ. ± marks the error that the study gave.

Substance | cell line | assay | system | conditions | how to read | measurement | value
Cc1ncsc1-c1ccc(CNC(=O)[C@@H]2C[C@H](O)CN2C(=O)[C@H](C(C)C)N2Cc3ccccc3C2=O)c(OCCNC(=O)c2ccccc2NC(=O)[C@H](CCCCN)NC(=O)[C@@H]2CCCN2C(=O)Cc2cccc3ccccc23)c1 | HCT-116 spheroids |  | PG-S peptide hydrogel | up to 64 µM, 3 days |  | viability | > 92%
C1CNCCNCCNCCN1 | HT-22 | cell growth or viability, MTT |  |  |  | IC50 | 73.6 µM
O=C(O)C1=CC(=C(c2ccc(O)c(C(=O)O)c2)c2ccc(O)c(C(=O)O)c2)C=CC1=O | HEK293 cells | cell viability |  | 72 h |  | IC50 | 13.8 µM
CCC/C=C1\OC(=O)C2=C1CCC=C2 | Hepa-1c1c7 | cytotoxicity, crystal violet |  | 48 h |  | IC50 | > 20 µM
CN(C)c1cc(CNCC(C)(C)C)c(O)c2c1C[C@H]1C[C@H]3[C@H](N(C)C)C(O)=C(C(N)=O)C(=O)[C@@]3(O)C(O)=C1C2=O | CHO | cytotoxicity, resazurin |  | 10% fetal calf serum |  | TC50 | > 100 µg/mL
CN(CC(=O)O)C(=O)CN | MDCKII-MDR1 |  |  | 60 min, pH 7.4 |  | Papp A-B | 11.7 ± 0.6 ×10⁻⁶ cm/s
Nc1ncnc2c1ncn2[C@H]1CC[C@@H](CO)O1 | PHA-stimulated human PBM cells | cell growth, trypan blue exclusion |  | 6 d |  | IC50 | > 100 µM
NC(C(=O)O)c1cc(O)cc(O)c1 (stereo not drawn) | rat cerebellar granule cells | PI hydrolysis |  | 24 h, culture-conditioned medium | baseline: freshly prepared | EC50 and Emax | no effect
NC(=O)[C@H](CCCN=C(N)CCl)NC(=O)c1ccccc1 | U-87 MG | JC-1 flow cytometry |  | 150.40 µM, 48 h |  | viable cells | 45.3 ± 11.5%
NS(=O)(=O)c1ccc(NC(=O)Nc2ccc(F)cc2)cc1 | human peripheral blood lymphocytes | cell growth, resazurin |  | 72 h, with: PHA stimulation |  | GI50 | > 10 µM
CC(C)OC(=O)c1ccnc2cc(C(OCCN3CCCCC3)c3cccc(NC(=O)/C=C/CN(C)C)c3)sc12 (stereo not drawn) | BT-474 | CellTiter-Glo |  | 24 h |  | concentration at steep viability loss | > 5 µM
COc1ccccc1-c1ccnc2nc(Nc3ccc(S(N)(=O)=O)cc3)nn12 | human peripheral blood lymphocytes | cell growth, resazurin |  | 72 h, with: PHA stimulation |  | GI50 | > 10 µM
O=C1C(Cl)=C(N(C(=O)CCl)C(=O)CCl)C(=O)c2ccccc21 | BALB/c 3T3 clone A31 | cytotoxicity, MTT |  | 48 h |  | IC50 | 19.7 ± 3.71 µM
CCCc1ccc2oc(-c3ccc(O)c(O)c3)c(O)c(=O)c2c1 | H4IIE | MTT |  | concentration not given, 24 h | baseline: with over without cyclosporin A | difference in toxicity | 54.3%
O=c1[nH]cnc2c1ncn2[C@H]1CC[C@@H](CO)O1 | PHA-stimulated human PBM cells | cell growth, trypan blue exclusion |  | 6 d |  | IC50 | > 100 µM
Telavancin | rat embryo fibroblasts |  |  | 72 h, 37 °C, 10% fetal calf serum, concentration range |  | uptake clearance | 9 ± 0.7 µL/mg protein/h
CN(C)c1ccc(O)c2c1C[C@H]1C[C@H]3[C@H](N(C)C)C(O)=C(C(N)=O)C(=O)[C@@]3(O)C(O)=C1C2=O | CHO | cytotoxicity, resazurin |  | 10% fetal calf serum |  | TC50 | > 100 µg/mL
c1csc(CNc2cc[nH]n2)c1 | human peripheral blood lymphocytes | item: mitotic index |  | 4 h, with and without S9 |  | cytotoxic concentration | 2160 µg/mL
